Assay results of several laboratories.
Parts stem from different laboratories: compare values within a part only. Positions count from the first letter of the parent shown.

Study 1
Target: CCNE2, cyclin fold, Cln2 fusion (human)
Technique: yeast growth competition, sequencing
Medium: yeast
Setting: strong parent motif
Reference: not given
Reading: higher = stronger binding
Starting sequence: WEE1 docking peptide (human); HKTFRKLRLFDTP; partner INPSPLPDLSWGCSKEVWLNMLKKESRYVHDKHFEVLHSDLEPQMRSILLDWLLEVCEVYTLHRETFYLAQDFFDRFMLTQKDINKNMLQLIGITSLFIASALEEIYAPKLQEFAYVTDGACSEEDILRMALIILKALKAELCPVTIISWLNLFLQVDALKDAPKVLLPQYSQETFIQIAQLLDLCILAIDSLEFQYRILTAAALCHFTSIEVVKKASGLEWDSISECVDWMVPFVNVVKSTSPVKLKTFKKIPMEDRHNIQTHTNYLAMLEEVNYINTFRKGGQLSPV
Change	normalised enrichment score
HKTFRKLRLFDTL [P13L]	1.27
HKTFRKLRWFDTP [L9W]	0.676
HWTFRKLRLFDTP [K2W]	0.507
HKTFRKLRLIDTP [F10I]	0.946
HKTFAKLRLFDTP [R5A]	-0.496
HKTFRKLRLFMTP [D11M]	0.944
HKTERKLRLFDTP [F4E]	0.783
HKTFRKLRLFITP [D11I]	0.471
RKTFRKLRLFDTP [H1R]	0.6
HKTFRKLRLFDTI [P13I]	0.778
HKIFRKLRLFDTP [T3I]	1.09
HKTFQKLRLFDTP [R5Q]	0.368
HKTFRKLPLFDTP [R8P]	0.163
HVTFRKLRLFDTP [K2V]	0.436
HKTFRKLRLQDTP [F10Q]	0.01
HKTFRKLFLFDTP [R8F]	0.493
HKTFRKLRLFDMP [T12M]	1.56
HKTFRKYRLFDTP [L7Y]	1.14
HKTFRKLREFDTP [L9E]	0.728
HKTFRKLDLFDTP [R8D]	0.0765
HKTFRKQRLFDTP [L7Q]	1
HPTFRKLRLFDTP [K2P]	0.498
HKTFRKLRLFFTP [D11F]	1.55
HKTFRKTRLFDTP [L7T]	1.01
HKTFRKLRHFDTP [L9H]	0.113

Study 2
Target: PABPC1L2, full length, GST fusion (mouse, UniProt A0ABA7IW68)
Technique: RNAcompete
Molecule type: RNA
Medium: in vitro
Concentration: 20 nM
Setting: 7-mer, probes averaged, single round
Reference: mean of 7-mers
Reading: higher = stronger binding
Residues (chain): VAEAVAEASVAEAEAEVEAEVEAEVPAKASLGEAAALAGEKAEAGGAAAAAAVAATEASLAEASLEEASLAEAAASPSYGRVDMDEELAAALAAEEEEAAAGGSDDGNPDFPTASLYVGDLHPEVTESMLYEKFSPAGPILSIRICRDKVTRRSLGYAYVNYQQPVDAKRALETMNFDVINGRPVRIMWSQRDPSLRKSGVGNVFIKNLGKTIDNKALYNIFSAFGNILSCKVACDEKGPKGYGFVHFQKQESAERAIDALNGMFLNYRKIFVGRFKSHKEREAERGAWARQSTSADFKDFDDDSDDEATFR
Sequence	7-mer Z-score
CACCUGA	-0.219
UAGUCAG	-0.318
UGUGCAU	-0.113
UUUGUCA	-0.248
CGUCCGG	-0.17
AGCUCGU	-0.338
CAAUAUA	0.0932
AGCGUAG	-0.0754
GAUGAUC	-0.0826
UCUCAUA	-0.324
CGCCAGC	-0.336
AAACUAU	1.06
AAUAAGA	0.63
ACCUAGC	-0.204
CGAUAAA	2.35
AUGCUAG	-0.0971
GGGACAC	0.341
AGUGCCC	-0.162
CCAGAGA	0.124
AAUAGGC	0.851
AGCAGUA	-0.0228
CAGGGAG	0.14
CUCCUAU	-0.271
CACGAUC	-0.101
GAUAUGU	-0.249

Study 3
Target: UBE2U UBC core domain (UniProt Q5VVX9)
Technique: yeast two-hybrid
Medium: yeast
Setting: mostly zero background
Reference: not given
Reading: higher = stronger interaction
B1: ZNF598 RING domain (UniProt Q86UK7); chain AAAPERGGGSCVLCCGDLEATALGRCDHPVCYRCSTKMRVLCEQRYCAVCREELRQVVFGK
B2: RC3H2 RING domain (UniProt Q9HBD1); chain QAAQWTEFLSCPICYNEFDENVHKPISLGCSHTVCKTCLNKLHRKACPFDQTAINTDIDVL
B3: TRIM72 RING domain (UniProt Q6ZMU5); chain APGLLHQELSCPLCLQLFDAPVTAECGHSFCRACLGRVAGEPAADGTVLCPCCQAPTRPQALST
B4: MID1 RING domain (UniProt O15344); chain METLESELTCPICLELFEDPLLLPCAHSLCFNCAHRILVSHCATNESVESITAFQCPTCRHVITLSQRGL
B5: PHF21A RING domain (UniProt Q96BD5); chain SPTSTDGDIHEDFCSVCRKSGQLLMCDTCSRVYHLDCLDPPLKTIPKGMWICPRCQDQMLKKEEAIPW
B6: TRIM8 RING domain (UniProt Q9BZR9); chain WKNCFEEELICPICLHVFVEPVQLPCKHNFCRGCIGEAWAKDSGLVRCPECNQAYNQKPGLE
Target sequence (chain): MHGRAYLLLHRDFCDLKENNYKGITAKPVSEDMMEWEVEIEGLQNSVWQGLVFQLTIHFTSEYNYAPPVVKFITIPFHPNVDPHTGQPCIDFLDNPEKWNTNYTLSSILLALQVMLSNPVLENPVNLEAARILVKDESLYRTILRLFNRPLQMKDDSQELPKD
Sequence	lacZ reporter activity
QHHELTSLFECPVCFDYVLPPILQCQAGHLVCNQCRQKLSCCPTCRGALTPSIRNL (SIAH2 RING domain (UniProt O43255))	9030
FPEHFVKSISCQICEHILADPVETNCKHVFCRVCILRCLKVMGSYCPSCRYPCFPTDLES (RAG1 RING domain (UniProt P15918))	0
PEELQAMDNVCIICREEMVTGAKRLPCNHIFHTSCLRSWFQRQQTCPTCRMDVLRASLPA (SYVN1 RING domain (UniProt Q86TM6))	8720
DAIPSLSECQCGICMEILVEPVTLPCNHTLCKPCFQSTVEKASLCCPFCRRRVSSWTRYH (RNF168 RING domain (UniProt Q8IYW5))	8530
B1 (ZNF598 RING domain)	5560
B2 (RC3H2 RING domain)	0
B3 (TRIM72 RING domain)	7970
RLTMMWEEVTCPICLDPFVEPVSIECGHSFCQECISQVGKGGGSVCPVCRQRFLLKNLRP (TRIM21 RING domain (UniProt P19474))	0
DDENSDNSNECVVCLSDLRDTLILPCRHLCLCTSCADTLRYQANNCPICRLPFRALLQIR (MGRN1 RING domain (UniProt O60291))	0
QLQDIKEQTMCPVCLDRLKNMIFLCGHGTCQLCGDRMSECPICRKAIERRILLY (MIB1 RING domain (UniProt Q86YT6))	8790
B4 (MID1 RING domain)	4880
B5 (PHF21A RING domain)	0
B6 (TRIM8 RING domain)	8600

Study 4
Target: ATF5, bZIP domain (human)
Technique: DHFR protein complementation
Medium: yeast
Setting: single substitutions, most at no-binding floor
Reference: wild-type JUN-FOS pair
Reading: higher = stronger binding
Starting sequence: JUN, bZIP domain (human); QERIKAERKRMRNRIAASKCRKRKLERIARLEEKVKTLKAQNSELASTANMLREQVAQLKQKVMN; partner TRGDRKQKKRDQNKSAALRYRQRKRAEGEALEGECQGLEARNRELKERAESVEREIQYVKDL
Change	binding fitness [natural log]
A49M	-1.36
A29L	-1.53
E32W	-1.51
L38P	-1.52
A29E	-1.3
Q41P	-1.57
A49C	-1.52
V35N	-1.42
R53C	-1.69
A46T	-1.46
S47R	-1.33
M51D	-1.22
A46C	-1.45
A40D	-1.55
A29M	-1.51
Q41R	-1.46
T37N	-1.45
K39Q	-1.38
I28G	-1.42
S43F	-1.43
L52H	-1.44
Q55V	-1.52
T37F	-1.31
R53M	-1.46
A46V	-1.5

Study 5
Target: RING finger protein unkempt homolog, zinc fingers 1-6, SBP tag (UNK, Homo sapiens, UniProt Q9C0B0, residues 30-357)
Sequence of UniProt Q9C0B0 (30-357, looked up): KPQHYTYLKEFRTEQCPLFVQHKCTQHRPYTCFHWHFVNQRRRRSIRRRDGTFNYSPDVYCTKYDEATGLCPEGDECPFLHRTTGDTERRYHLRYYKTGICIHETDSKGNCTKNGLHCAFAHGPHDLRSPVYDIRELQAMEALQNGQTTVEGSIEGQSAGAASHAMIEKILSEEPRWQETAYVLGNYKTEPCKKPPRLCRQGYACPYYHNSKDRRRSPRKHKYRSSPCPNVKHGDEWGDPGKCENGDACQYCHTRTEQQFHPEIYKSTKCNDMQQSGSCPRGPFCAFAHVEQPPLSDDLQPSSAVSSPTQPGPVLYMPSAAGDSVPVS
Technique: RNA Bind-n-Seq
Molecule type: RNA
Medium: in vitro
Concentration: 100 nM
Setting: RNA with constant flanks, vertebrate orthologous sites, ends assumed
Reference: input RNA pool
Reading: higher = stronger binding
All sequences stand within: GGGAGUUCUACAGUCCGACGAUC … CAACAGAGGAUUGAGCAUCA
Sequence	bound/input enrichment [ratio]
AGUAGUUUUAAGCUUGUUUGCACAGUUCUUUUUUUCCAUUGGAAAUGGAAUCCAUUGCCUUAGGUCUUUUUAAAUAGUGUAUUAUUAUCGUUGGGGCUGGCUCUAUGCUUGAAAACCAGU	3.31
UACAAUCUUACACUUAAACUGGUAUUUUCAAACAAUAGGAAAUUUUCUUUUUUUACAGAUUAGUGUAUCUGGUUUCUGUAUGGAAGACUAAACUCAUGUUUAUUGCUAAAUGUGGUCUUU	0.331
ACCCCAGUUUGUAUGUUCAUUAUUCACAUUCCUGUUUGUGUUUGGGAAACAAAAGACAUUUUAGCCUUUUUUAAGGUUAUUGACUUCAUUUCAUGUUAUUUGGCUGCAUGAGGUUGCCCU	0.322
UUUUAUUGAUCAGGUCUGUAAAUGUGUACUAAAAAAAUCAGAGUUUAUUUAUAAACAGAAUAGUUUAUUUAAAGAGAAGGUCUUCAUUGAUACUGUGGUAUGCAUUAAUUCCAUUUGUUA	0.413
AAUUUCUUGUAUACAUGAUCUAGUCCUGUAUUAUUAUUAUUAUUUUCUUACACGAUUGUUUGUCAGUAUGUCUGUGUCUGUCACAUUUCCUUCUCAGGCGAAGGGCUAGAGUUUAAAAAA	1.65
UAGUGCCAUGGUGGAGGGCUCCGAGCUCAAAAAGGUCCGCUCCAACUCCAGGAUUUACCACAGGUAUUUCUUGCUGGACGCCGACAUGCAGAGCCUGAGGUGGGAACCAUCCAAGAAGGA	0.251
AAAUUUAUUUCAUGCCCUGGACUCCCUAUCGUACUGAUACUUUAAUAGAAUAUGCAUCUUUAGAAGACUUCCAAAACAGUCGCCAAACAACAACCUAUAAACUUCCAAAUCGAGUAGAUG	1.66
GCCUUAGAAGUGAGCUGACAGGGCAGUUAGGUGGGCUCCCAUCUCAAGGAAAACCCUAAACCGAUUCCUUAACCAGCUAGCUAGACACUGGUGGUUAGCUUUUCAGUUUGUUUUCAUUUU	0.294
GCCAUUUUUUUUCCACAUUUUCUGUAAAUAAUGGAUAAUCAUUUUUAAAAAUUUUAUUUUUAGUGCUGUUUUAGCAAUGUGGAUAGAUCAUAAAUGUACUUGCUGAAUUCAAUCAUUUUU	0.401
UAUCUUCAGGAUGAAGCUCUUACAUCAGGUGUCAAGAGUCUGGAGAACAGAUGGGUUGAACAGUUGUAUUUAUAAGUUAGUCUCUGUGGAUUACAAUCCUUUAUAUAUCAACAUCACAGU	0.322
UAUUAGUGUCAUACCAGCAUAUUAACCUCUCGUCUGUGCACAGCUUCAAAUGUUACCGUCUAGUUAGGUUUUUAUUUAAAAUAUGAAAAACUGCUUUUCCCAAGACGUUUUUUAAAAAAA	1.11

Repeated from above (study 2):
Sequence	7-mer Z-score
CGCCAGC	-0.336
CCAGAGA	0.124
UUUGUCA	-0.248
CAAUAUA	0.0932
UGUGCAU	-0.113
AGCGUAG	-0.0754
UCUCAUA	-0.324
AAACUAU	1.06
GGGACAC	0.341
AGCUCGU	-0.338
UAGUCAG	-0.318
GAUAUGU	-0.249
